Measured values gathered from unrelated publications.
Lines come from different studies, so protocols differ. Numbers after ± are the reported error.
Organism: SARS-CoV-2

Structure (SMILES)	effect on	method	refers to	cells	strain	time	IC50
COc1cc2c(cc1O)CCN[C@]21CS[C@@H]2c3c(OC(C)=O)c(C)c4c(c3[C@H](COC1=O)N1[C@@H]2[C@H]2c3c(cc(C)c(OC)c3O)C[C@@H]([C@@H]1C#N)N2C)OCO4	viral replication	RT-qPCR	viral RNA in supernatant	Calu-3	SA		0.007 nM
Oc1c(CN2CCCC2)cc(Nc2c3ccc(Cl)cc3nc3ccc(Cl)cc23)cc1CN1CCCC1	viral replication			U2OS	BetaCoV/France/IDF0372/2020		570 nM
Cc1cn2nc([C@@H]3CCCCN3C(=O)c3cc(Cl)ccc3NS(C)(=O)=O)cc2nc1N1CC[C@H](N)C1	viral replication			Vero E6			6740 nM
CC1(C)CCC2(C(=O)OC3OCC(O)C(O)C3O)CCC3(C)C(=CCC4C5(C)CCC(OC6OC(CO)C(O)C(O)C6O)C(C)(C)C5CCC43C)C2C1 (centres unmarked)	pseudovirus cell entry	luciferase reporter		NCI-H1299 ACE2-expressing		24 h	> 10000 nM
CC(C)CCOP(=O)(O)Oc1c2c(c(OP(=O)(O)OCCC(C)C)c3c1C1CC3c3cc4c(cc31)C1CC4c3ccccc31)C1CC2c2cc3c(cc21)C1CC3c2ccccc21	spike pseudoparticle entry			Caco-2			2600 nM
CCCCCCCCCCCC1CC(=O)NC(CC(N)=O)C(=O)NC(Cc2ccc(O)cc2)C(=O)NC(CC(N)=O)C(=O)NC(CCC(N)=O)C(=O)N2CCCC2C(=O)NC(CC(N)=O)C(=O)NC(CO)C(=O)N1 (centres unmarked)	viral replication			Vero		24 h	11.1 ± 2 µg/mL
Oc1c(CN2CCCC2)cc(Nc2c3cc(Cl)ccc3nc3ccc(Cl)cc23)cc1CN1CCCC1	viral replication			U2OS	BetaCoV/France/IDF0372/2020		1760 nM
CC1CC2C3(O)C1OC(=O)C=CC=CC(OC(=O)c1ccccc1)C1CCC(CC(C)(O)C4(O)C5OC6(c7ccccc7)OC4C(C4OC4(C)C3O)C2(O6)C5C)C1C (centres unmarked)	viral replication			Vero E6			130 nM
CC1OC(OC2C(OC(=O)C34CCC(C)(C)CC3C3=CCC5C6(C)CCC(OC7OC(CO)C(O)C(O)C7O)C(C)(C)C6CCC5(C)C3(C)CC4O)OCC(O)C2O)C(O)C(O)C1OC1OCC(O)C(OC2OCC(O)C(O)C2O)C1O (centres unmarked)	pseudovirus cell entry	luciferase reporter		NCI-H1299 ACE2-expressing		24 h	640 nM
C(=N\Cc1cc(C/N=C/c2ccc[nH]2)cc(-c2cc(C/N=C/c3ccc[nH]3)cc(C/N=C/c3ccc[nH]3)c2)c1)/c1ccc[nH]1	viral replication	plaque reduction neutralization			WA.1		~20000 nM
Cc1oc2nc1C(=O)N[C@](C)(C(=O)NCCc1ccc(N(C)C)cc1)c1nc(c(C)o1)C(=O)N[C@](C)(C(=O)NCCc1ccc(N(C)C)cc1)c1nc(c(C)o1)C(=O)N[C@]2(C)C(=O)NCCc1ccc(N(C)C)cc1	viral replication			Vero E6	NRC-03-nhCoV	72 h	63300 nM
O=P(O)(OCCCc1ccccc1)Oc1c2c(c(OP(=O)(O)OCCCc3ccccc3)c3c1C1CC3c3cc4c(cc31)C1CC4c3ccccc31)C1CC2c2cc3c(cc21)C1CC3c2ccccc21	spike pseudoparticle entry			Caco-2			1500 nM
COc1ccc2nc3ccc(F)cc3c(Nc3ccc(O)c(CN4CCCC4)c3)c2c1	viral replication			U2OS	BetaCoV/France/IDF0372/2020		1910 nM
CCCCCCOP(=O)(O)Oc1c2c(c(OP(=O)(O)OCCCCCC)c3c1C1CC3c3cc4c(cc31)C1CC4c3ccccc31)C1CC2c2cc3c(cc21)C1CC3c2ccccc21	spike pseudoparticle entry			Caco-2			1700 nM
O=C(Nc1ccc([N+](=O)[O-])cc1Cl)c1cc(Cl)ccc1O	viral replication			Vero E6	wild type		130 nM
Oc1ccc(Nc2c3ccc(Cl)cc3nc3ccc(Cl)cc23)cc1CN1CCCC1	viral replication			U2OS	BetaCoV/France/IDF0372/2020		1370 nM
COP(=O)(O)Oc1c2c(c(OP(=O)(O)OC)c3c1C1CC3c3cc4c(cc31)C1CC4c3ccccc31)C1CC2c2cc3c(cc21)C1CC3c2ccccc21	spike pseudoparticle entry			Caco-2			23600 nM
CC1OC(OC2C(OC(=O)C34CCC(C)(C)CC3C3=CCC5C6(C)CCC(OC7OC(CO)C(O)C(O)C7O)C(C)(C)C6CCC5(C)C3(C)CC4O)OCC(O)C2O)C(O)C(O)C1OC1OCC(O)C(OC2OCC(O)C(OC3OCC(O)C(O)C3O)C2O)C1O (centres unmarked)	viral infection			Vero	ancestral	24 h	1420 nM
COc1ccc2nc3ncccc3c(Nc3ccc(O)c(CN4CCCC4)c3)c2c1	viral replication			U2OS	BetaCoV/France/IDF0372/2020		1960 nM
CC(=O)OC1CC2(C)C(=CCC3C4(C)CCC(O)C(C)(C)C4CCC32C)C2CC(C)(C)CCC12C(=O)OC1OCC(O)C(O)C1OC1OC(C)C(OC2OCC(O)C(OC3OCC(O)C(O)C3O)C2O)C(O)C1O (centres unmarked)	pseudovirus cell entry	luciferase reporter		NCI-H1299 ACE2-expressing		24 h	> 10000 nM
CCC(CC)COC(=O)[C@H](C)N[P@](=O)(OC[C@H]1O[C@@](C#N)(c2ccc3c(N)ncnn23)[C@H](O)[C@@H]1O)Oc1ccccc1	viral replication	RT-qPCR	viral RNA in supernatant	Calu-3	SA		45 nM
O=P(O)(OCc1ccccc1)Oc1c2c(c(OP(=O)(O)OCc3ccccc3)c3c1C1CC3c3cc4c(cc31)C1CC4c3ccccc31)C1CC2c2cc3c(cc21)C1CC3c2ccccc21	spike pseudoparticle entry			Caco-2			1800 nM
Cc1cc(C)n(-c2nc(-c3ccccc3)cc(=O)n2CC(=O)Nc2cccc([N+](=O)[O-])c2)n1	cytopathic effect	live virus			Omicron BA.4		400 nM
O=P(O)(O)Oc1c2c(c(OP(=O)(O)O)c3c1C1CC3c3cc4c(cc31)C1CC4c3ccccc31)C1CC2c2cc3c(cc21)C1CC3c2ccccc21	spike pseudoparticle entry			Caco-2			35000 nM
Cc1oc2nc1C(=O)N[C@](C)(C(=O)NCCc1ccc(N3CCCCC3)cc1)c1nc(c(C)o1)C(=O)N[C@](C)(C(=O)NCCc1ccc(N3CCCCC3)cc1)c1nc(c(C)o1)C(=O)N[C@]2(C)C(=O)NCCc1ccc(N2CCCCC2)cc1	viral replication			Vero E6	NRC-03-nhCoV	72 h	61700 nM
C=CCCCOP(=O)(O)Oc1c2c(c(OP(=O)(O)OCCCC=C)c3c1C1CC3c3cc4c(cc31)C1CC4c3ccccc31)C1CC2c2cc3c(cc21)C1CC3c2ccccc21	spike pseudoparticle entry			Caco-2			6000 nM
Cc1ccc(N2CCN(C)CC2)cc1C(=O)NC1(c2ccc3c4c(cccc24)CC3)CC1	viral replication			Vero C1008	XBB.1		466 ± 35.1 nM
[N-]=[N+]=NCCOP(=O)(O)Oc1c2c(c(OP(=O)(O)OCCN=[N+]=[N-])c3c1C1CC3c3cc4c(cc31)C1CC4c3ccccc31)C1CC2c2cc3c(cc21)C1CC3c2ccccc21	spike pseudoparticle entry			Caco-2			37400 nM
COc1ccc2nc3ncccc3c(Nc3cc(CN4CCCC4)c(O)c(CN4CCCC4)c3)c2c1	viral replication			U2OS	BetaCoV/France/IDF0372/2020		1950 nM

Some of these lines once more:
Structure (SMILES)	effect on	method	refers to	cells	strain	time	IC50
COP(=O)(O)Oc1c2c(c(OP(=O)(O)OC)c3c1C1CC3c3cc4c(cc31)C1CC4c3ccccc31)C1CC2c2cc3c(cc21)C1CC3c2ccccc21	spike pseudoparticle entry			Caco-2			23600 nM
CC1OC(OC2C(OC(=O)C34CCC(C)(C)CC3C3=CCC5C6(C)CCC(OC7OC(CO)C(O)C(O)C7O)C(C)(C)C6CCC5(C)C3(C)CC4O)OCC(O)C2O)C(O)C(O)C1OC1OCC(O)C(OC2OCC(O)C(OC3OCC(O)C(O)C3O)C2O)C1O (centres unmarked)	viral infection			Vero	ancestral	24 h	1420 nM
COc1ccc2nc3ncccc3c(Nc3ccc(O)c(CN4CCCC4)c3)c2c1	viral replication			U2OS	BetaCoV/France/IDF0372/2020		1960 nM
CC(=O)OC1CC2(C)C(=CCC3C4(C)CCC(O)C(C)(C)C4CCC32C)C2CC(C)(C)CCC12C(=O)OC1OCC(O)C(O)C1OC1OC(C)C(OC2OCC(O)C(OC3OCC(O)C(O)C3O)C2O)C(O)C1O (centres unmarked)	pseudovirus cell entry	luciferase reporter		NCI-H1299 ACE2-expressing		24 h	> 10000 nM
CCC(CC)COC(=O)[C@H](C)N[P@](=O)(OC[C@H]1O[C@@](C#N)(c2ccc3c(N)ncnn23)[C@H](O)[C@@H]1O)Oc1ccccc1	viral replication	RT-qPCR	viral RNA in supernatant	Calu-3	SA		45 nM
